Measured values collected from several papers.
Every numbered part comes from another study and shows a few of its results, in no order. Several values in a cell are separate wells, animals, samples, runs or records.
Chain of UniProt P42336 (whole entry, unmodified, looked up): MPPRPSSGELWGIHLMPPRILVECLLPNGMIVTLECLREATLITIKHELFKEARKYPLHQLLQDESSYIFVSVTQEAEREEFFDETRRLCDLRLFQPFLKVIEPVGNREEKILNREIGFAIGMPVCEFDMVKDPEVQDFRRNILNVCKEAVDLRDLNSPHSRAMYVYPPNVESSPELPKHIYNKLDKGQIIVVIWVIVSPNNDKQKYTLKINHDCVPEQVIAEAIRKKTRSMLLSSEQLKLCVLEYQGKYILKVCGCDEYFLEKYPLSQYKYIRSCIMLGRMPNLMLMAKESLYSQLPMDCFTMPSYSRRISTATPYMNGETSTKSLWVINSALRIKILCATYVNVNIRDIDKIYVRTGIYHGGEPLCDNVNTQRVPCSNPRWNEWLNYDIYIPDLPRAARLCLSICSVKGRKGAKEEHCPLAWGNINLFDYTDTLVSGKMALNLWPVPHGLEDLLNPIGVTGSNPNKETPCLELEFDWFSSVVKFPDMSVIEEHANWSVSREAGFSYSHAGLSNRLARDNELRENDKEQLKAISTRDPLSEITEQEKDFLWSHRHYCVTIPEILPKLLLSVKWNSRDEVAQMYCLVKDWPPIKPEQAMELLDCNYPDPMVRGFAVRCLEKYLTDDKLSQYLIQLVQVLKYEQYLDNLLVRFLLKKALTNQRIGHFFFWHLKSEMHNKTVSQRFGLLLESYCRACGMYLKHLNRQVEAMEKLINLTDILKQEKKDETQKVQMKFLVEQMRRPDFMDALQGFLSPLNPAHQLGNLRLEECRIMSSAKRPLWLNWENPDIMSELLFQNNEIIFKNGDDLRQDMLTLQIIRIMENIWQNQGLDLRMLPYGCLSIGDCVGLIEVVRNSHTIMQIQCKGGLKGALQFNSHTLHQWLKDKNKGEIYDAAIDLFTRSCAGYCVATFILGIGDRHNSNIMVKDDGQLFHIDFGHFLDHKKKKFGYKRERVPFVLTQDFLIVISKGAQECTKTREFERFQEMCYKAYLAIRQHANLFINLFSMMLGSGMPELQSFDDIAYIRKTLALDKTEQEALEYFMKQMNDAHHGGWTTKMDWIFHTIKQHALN
Chain of UniProt Q8TDC3 (whole entry, looked up): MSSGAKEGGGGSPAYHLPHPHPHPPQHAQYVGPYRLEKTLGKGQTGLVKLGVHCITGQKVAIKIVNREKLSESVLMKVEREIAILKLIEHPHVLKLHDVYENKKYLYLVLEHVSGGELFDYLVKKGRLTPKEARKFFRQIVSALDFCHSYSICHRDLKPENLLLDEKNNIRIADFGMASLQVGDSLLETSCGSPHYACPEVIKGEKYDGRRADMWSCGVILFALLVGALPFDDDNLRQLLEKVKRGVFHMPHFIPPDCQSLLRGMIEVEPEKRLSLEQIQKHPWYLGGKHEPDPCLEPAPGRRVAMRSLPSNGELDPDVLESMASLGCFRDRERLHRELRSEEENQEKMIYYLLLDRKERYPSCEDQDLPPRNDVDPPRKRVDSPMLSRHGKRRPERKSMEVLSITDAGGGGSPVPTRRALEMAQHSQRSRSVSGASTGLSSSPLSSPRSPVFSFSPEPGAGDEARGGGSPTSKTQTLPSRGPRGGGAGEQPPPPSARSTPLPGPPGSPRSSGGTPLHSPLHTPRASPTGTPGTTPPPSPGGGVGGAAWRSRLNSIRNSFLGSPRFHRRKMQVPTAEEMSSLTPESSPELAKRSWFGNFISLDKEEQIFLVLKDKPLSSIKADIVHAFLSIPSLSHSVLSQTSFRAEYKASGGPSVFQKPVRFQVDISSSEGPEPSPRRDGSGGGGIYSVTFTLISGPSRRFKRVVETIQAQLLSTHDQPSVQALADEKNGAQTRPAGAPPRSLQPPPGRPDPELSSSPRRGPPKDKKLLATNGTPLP

Block 1
Compound: CN(C1COC1)C(C)(C)/C=C(\C#N)C(=O)N1CCC[C@H]1Cn1nc(-c2ccc(Oc3ccccc3)cc2F)c2c(N)ncnc21
It gave -4% for inhibition (PAK6 (Homo sapiens, UniProt Q9NQU5); kinase activity; 1 µM).
PRKCH (Homo sapiens, UniProt P24723); kinase activity; 0.1 µM — inhibition: 5%.
It gave 3% for inhibition (PRKCE (Homo sapiens, UniProt Q02156); kinase activity; 0.1 µM).
For ITK (Homo sapiens, UniProt Q08881); kinase activity; 0.1 µM: inhibition read 0%.
The inhibition was 3% (PRKCZ (Homo sapiens, UniProt Q05513); kinase activity; 0.1 µM).
ERBB2 (Homo sapiens, UniProt P04626); kinase activity; 1 µM — inhibition: 1%.
The inhibition was 6% (CSNK1G2 (Homo sapiens, UniProt P78368); kinase activity; 0.1 µM).
It gave 0% for inhibition (BRAF (Homo sapiens, UniProt P15056); kinase activity; 0.1 µM).
The inhibition was 1% (PTK2B (Homo sapiens, UniProt Q14289); kinase activity; 0.1 µM).
For TNIK (Homo sapiens, UniProt Q9UKE5); kinase activity; 1 µM: inhibition read 1%.
For NTRK1 (Homo sapiens, UniProt P04629); kinase activity; 0.1 µM: inhibition read 7%.
It gave -3% for inhibition (BRSK1 (Homo sapiens, UniProt Q8TDC3); kinase activity; 1 µM).
It gave 3% for inhibition (NDRG1; 0.1 µM, mean).
The inhibition was 2% (HIPK4 (Homo sapiens, UniProt Q8NE63); kinase activity; 1 µM).
For CAMK1D (Homo sapiens, UniProt Q8IU85); kinase activity; 1 µM: inhibition read 4%.

Block 2
SMILES: C=C(CN)COc1cccc(Cn2c(=S)[nH]c(=O)c3[nH]cnc32)c1
MPO: Myeloperoxidase (MPO, Homo sapiens, UniProt P05164)
Chain of UniProt P05164 (whole entry, looked up): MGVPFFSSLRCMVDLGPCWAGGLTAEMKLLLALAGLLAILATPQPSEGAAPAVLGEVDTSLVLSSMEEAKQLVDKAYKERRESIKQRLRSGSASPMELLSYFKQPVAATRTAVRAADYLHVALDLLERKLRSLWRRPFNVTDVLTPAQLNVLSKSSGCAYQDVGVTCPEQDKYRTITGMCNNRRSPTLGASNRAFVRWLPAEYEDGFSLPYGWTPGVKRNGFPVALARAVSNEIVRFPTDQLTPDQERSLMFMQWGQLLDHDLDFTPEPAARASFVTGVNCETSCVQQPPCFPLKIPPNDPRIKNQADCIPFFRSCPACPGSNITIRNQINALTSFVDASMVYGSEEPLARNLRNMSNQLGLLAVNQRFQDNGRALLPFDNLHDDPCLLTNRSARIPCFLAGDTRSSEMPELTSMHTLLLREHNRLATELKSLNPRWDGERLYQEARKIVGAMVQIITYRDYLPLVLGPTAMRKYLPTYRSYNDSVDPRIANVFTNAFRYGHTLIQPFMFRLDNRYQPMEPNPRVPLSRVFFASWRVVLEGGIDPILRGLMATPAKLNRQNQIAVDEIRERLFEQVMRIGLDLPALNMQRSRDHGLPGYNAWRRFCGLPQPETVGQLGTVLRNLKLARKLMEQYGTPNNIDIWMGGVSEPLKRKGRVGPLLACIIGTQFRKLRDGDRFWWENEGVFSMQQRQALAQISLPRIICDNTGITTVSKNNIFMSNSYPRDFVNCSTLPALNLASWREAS
AOC3: Amine oxidase [copper-containing] 3 (AOC3, Homo sapiens, UniProt Q16853)
Chain of UniProt Q16853 (whole entry, looked up): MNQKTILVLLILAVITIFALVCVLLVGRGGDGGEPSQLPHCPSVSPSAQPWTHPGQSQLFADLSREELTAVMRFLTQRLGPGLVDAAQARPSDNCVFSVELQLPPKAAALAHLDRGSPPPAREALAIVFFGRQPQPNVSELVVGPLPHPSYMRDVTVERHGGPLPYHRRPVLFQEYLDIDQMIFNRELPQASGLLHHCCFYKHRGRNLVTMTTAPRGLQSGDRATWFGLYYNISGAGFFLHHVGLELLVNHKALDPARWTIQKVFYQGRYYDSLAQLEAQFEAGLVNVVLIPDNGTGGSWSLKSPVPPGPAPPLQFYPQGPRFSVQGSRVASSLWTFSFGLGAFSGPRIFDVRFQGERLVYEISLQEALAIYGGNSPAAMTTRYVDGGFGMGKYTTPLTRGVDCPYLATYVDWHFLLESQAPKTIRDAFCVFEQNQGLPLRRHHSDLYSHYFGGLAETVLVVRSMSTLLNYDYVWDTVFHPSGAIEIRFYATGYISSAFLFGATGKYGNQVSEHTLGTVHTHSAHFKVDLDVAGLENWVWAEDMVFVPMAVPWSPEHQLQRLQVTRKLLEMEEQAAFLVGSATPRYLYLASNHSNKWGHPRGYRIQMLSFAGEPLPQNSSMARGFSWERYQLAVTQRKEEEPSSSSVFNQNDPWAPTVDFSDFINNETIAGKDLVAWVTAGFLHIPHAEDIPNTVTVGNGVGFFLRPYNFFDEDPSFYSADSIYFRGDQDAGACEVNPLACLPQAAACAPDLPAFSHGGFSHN
MPO; enzyme activity; 0.0137 µM — inhibition: 51.3% and 40.5%.
It gave 20.9 % Inhibition and -0.545 % Inhibition for inhibition (AOC3; H2O2 production, inhibitor, Amplex Red; 0.0412 µM).
The inhibition was 10.7% (AOC3; enzyme activity, Amplex Red H2O2 production; 0.1235 µM, mean value).
For AOC3; H2O2 production, inhibitor, Amplex Red; 3.333 µM: inhibition read 87.1 % Inhibition and 64.3 % Inhibition.
The inhibition was 99.9% (MPO; enzyme activity; 10 µM).
It gave 99.6% for inhibition (MPO; enzyme activity, inhibitor, fluorescence; 3 µM).
The inhibition was 4.31% (AOC3; enzyme activity, Amplex Red H2O2 production; 0.0015 µM, mean value).
It gave 9.6 % Inhibition and -4.07 % Inhibition for inhibition (AOC3; H2O2 production, inhibitor, Amplex Red; 0.0005 µM).
For MPO; enzyme activity; 3.333 µM: inhibition read 100%.
The inhibition was 93.6% (AOC3; enzyme activity, Amplex Red H2O2 production; 30 µM, mean value).
The inhibition was 9.03% (AOC3; enzyme activity, Amplex Red H2O2 production; 0.0137 µM, mean value).
The inhibition was 11.6 % Inhibition and -2.93 % Inhibition (AOC3; H2O2 production, inhibitor, Amplex Red; 0.0015 µM).
For MPO; enzyme activity, inhibitor, fluorescence; 0.3333 µM: inhibition read 97.1%.
MPO; enzyme activity; 30 µM — inhibition: 100%.
MPO; enzyme activity, inhibitor, fluorescence; 30 µM — inhibition: 101%.

Block 3
Structure (SMILES): CC[C@@]1(c2cccc(C(F)(F)F)c2)C2=C(Nc3n[nH]cc31)[C@H](F)C(C)(C)CC2=O (single isomer, unassigned)
Concentration: 1 µM
The remaining binding was 100% (SIK1 (Homo sapiens, UniProt P57059); KINOMEscan).
The remaining binding was 87% (CAMKK1 (Homo sapiens, UniProt Q8N5S9); binding, competition with immobilised ligand).
It gave 68% for remaining binding (FLT3 (Homo sapiens, UniProt P36888, K663Q); kinase binding, KINOMEscan; reference: DMSO control).
Tyrosine-protein kinase ABL1, non-phosphorylated (ABL1, Homo sapiens, UniProt P00519, F317I); kinase binding, KINOMEscan; reference: DMSO control — remaining binding: 100%.
The remaining binding was 24% (PIK3CA (Homo sapiens, UniProt P42336, I800L); binding, competition with immobilised ligand).
For PKN2 (Homo sapiens, UniProt Q16513); kinase binding, KINOMEscan; reference: DMSO control: remaining binding read 98%.
For DYRK2 (Homo sapiens, UniProt Q92630); kinase binding, KINOMEscan; reference: DMSO control: remaining binding read 100%.
It gave 68% for remaining binding (EGFR (Homo sapiens, UniProt P00533, del747-750/T751S); binding, competition with immobilised ligand).
For ULK1 (Homo sapiens, UniProt O75385); binding, competition with immobilised ligand: remaining binding read 98%.
PIK3CA (Homo sapiens, UniProt P42336, Q546K); kinase binding, KINOMEscan; reference: DMSO control — remaining binding: 59%.
It gave 100% for remaining binding (HCK (Homo sapiens, UniProt P08631); binding, competition with immobilised ligand).
It gave 100% for remaining binding (EPHB4 (Homo sapiens, UniProt P54760); binding, competition with immobilised ligand).
The remaining binding was 100% (PLK4 (Homo sapiens, UniProt O00444); binding, competition with immobilised ligand).
For NUAK1 (Homo sapiens, UniProt O60285); kinase binding, KINOMEscan; reference: DMSO control: remaining binding read 91%.
It gave 82% for remaining binding (FGFR4 (Homo sapiens, UniProt P22455); binding, competition with immobilised ligand).
For LRRK2 (Homo sapiens, UniProt Q5S007); kinase binding, KINOMEscan; reference: DMSO control: remaining binding read 79%.
It gave 78% for remaining binding (CAMK2D (Homo sapiens, UniProt Q13557); binding, competition with immobilised ligand).
LATS2 (Homo sapiens, UniProt Q9NRM7); binding, competition with immobilised ligand — remaining binding: 100%.

Block 4
Structure (SMILES): C[C@@H]1CN(c2ccc(-c3cc(C(=O)NCCOCCOCCOCCOCCNC(=O)Cn4cc(-c5[nH]cc(C(=O)N[C@@H](CC(N)=O)c6ccc(F)c(Cl)c6)c5-c5ccc(Cl)cc5F)cn4)ccc3F)cc2NC(=O)c2c[nH]c(=O)cc2C(F)(F)F)C[C@H](C)N1C
Effect on: thermal unfolding
Technique: differential scanning fluorimetry
Concentration: 5.5 µM
Reading: higher = more unfolded
WDR5: WD repeat-containing protein 5 (WDR5, Homo sapiens, UniProt P61964)
DCAF1: DDB1- and CUL4-associated factor 1 (DCAF1, Homo sapiens, UniProt Q9Y4B6)
Chain of UniProt Q9Y4B6 (whole entry, looked up): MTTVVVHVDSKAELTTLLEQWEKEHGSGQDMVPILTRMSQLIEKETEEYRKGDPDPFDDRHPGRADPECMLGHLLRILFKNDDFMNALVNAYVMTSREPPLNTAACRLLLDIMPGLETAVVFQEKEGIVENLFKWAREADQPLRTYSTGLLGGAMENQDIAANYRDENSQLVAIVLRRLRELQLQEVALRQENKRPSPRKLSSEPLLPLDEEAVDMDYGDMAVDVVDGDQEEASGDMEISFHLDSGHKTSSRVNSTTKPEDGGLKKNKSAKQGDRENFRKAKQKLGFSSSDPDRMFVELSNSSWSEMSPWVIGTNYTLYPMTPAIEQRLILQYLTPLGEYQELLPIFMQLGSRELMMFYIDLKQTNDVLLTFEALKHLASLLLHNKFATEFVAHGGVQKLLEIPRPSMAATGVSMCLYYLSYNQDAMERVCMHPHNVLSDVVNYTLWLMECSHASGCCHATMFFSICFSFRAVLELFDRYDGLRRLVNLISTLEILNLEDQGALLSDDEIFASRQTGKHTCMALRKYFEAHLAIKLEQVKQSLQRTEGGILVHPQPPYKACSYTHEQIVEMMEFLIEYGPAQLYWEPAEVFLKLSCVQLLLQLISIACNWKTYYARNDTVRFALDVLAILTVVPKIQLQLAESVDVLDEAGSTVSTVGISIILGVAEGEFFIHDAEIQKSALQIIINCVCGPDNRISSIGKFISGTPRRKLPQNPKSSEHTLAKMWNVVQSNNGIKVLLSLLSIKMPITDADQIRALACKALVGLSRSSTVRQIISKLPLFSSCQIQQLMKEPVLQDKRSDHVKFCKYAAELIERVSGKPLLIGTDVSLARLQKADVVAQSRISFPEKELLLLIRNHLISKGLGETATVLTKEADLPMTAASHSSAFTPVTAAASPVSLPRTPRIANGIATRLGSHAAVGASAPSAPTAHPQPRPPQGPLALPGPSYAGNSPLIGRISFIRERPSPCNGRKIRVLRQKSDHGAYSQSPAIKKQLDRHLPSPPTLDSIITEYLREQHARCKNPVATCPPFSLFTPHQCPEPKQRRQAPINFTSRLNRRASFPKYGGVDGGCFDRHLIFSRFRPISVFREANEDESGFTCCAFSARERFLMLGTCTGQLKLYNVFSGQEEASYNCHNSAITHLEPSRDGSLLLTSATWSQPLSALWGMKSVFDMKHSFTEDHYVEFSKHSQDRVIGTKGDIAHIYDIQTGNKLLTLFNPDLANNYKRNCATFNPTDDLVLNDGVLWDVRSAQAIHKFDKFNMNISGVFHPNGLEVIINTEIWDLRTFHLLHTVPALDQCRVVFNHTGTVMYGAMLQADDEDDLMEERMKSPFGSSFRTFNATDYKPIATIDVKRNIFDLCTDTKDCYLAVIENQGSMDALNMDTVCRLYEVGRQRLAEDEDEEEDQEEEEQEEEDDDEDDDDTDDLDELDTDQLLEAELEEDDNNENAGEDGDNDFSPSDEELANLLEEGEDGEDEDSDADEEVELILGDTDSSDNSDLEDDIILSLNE
The “SYPRO Orange fluorescence” was 22100 a.u. (WDR5; 79.61 °C).
DCAF1; 44.4 °C — “SYPRO Orange fluorescence”: 12000 a.u.
The “SYPRO Orange fluorescence” was 14400 a.u. (WDR5; 47.6 °C).
DCAF1; 63.21 °C — “SYPRO Orange fluorescence”: 52100 a.u.
WDR5; 46.2 °C — “SYPRO Orange fluorescence”: 14300 a.u.
It gave 39100 a.u. for “SYPRO Orange fluorescence” (DCAF1; 85.61 °C).
DCAF1; 48 °C — “SYPRO Orange fluorescence”: 13500 a.u.
It gave 10400 a.u. for “SYPRO Orange fluorescence” (WDR5; 60.01 °C).
The “SYPRO Orange fluorescence” was 7300 a.u. (WDR5; 71.41 °C).
The “SYPRO Orange fluorescence” was 9440 a.u. (DCAF1; 37.2 °C).
The “SYPRO Orange fluorescence” was 56700 a.u. (DCAF1; 66.41 °C).

Some of these lines once more (block 3):
Tyrosine-protein kinase ABL1, non-phosphorylated (ABL1, Homo sapiens, UniProt P00519, F317I); kinase binding, KINOMEscan; reference: DMSO control — remaining binding: 100%.
It gave 82% for remaining binding (FGFR4 (Homo sapiens, UniProt P22455); binding, competition with immobilised ligand).
For NUAK1 (Homo sapiens, UniProt O60285); kinase binding, KINOMEscan; reference: DMSO control: remaining binding read 91%.
The remaining binding was 100% (SIK1 (Homo sapiens, UniProt P57059); KINOMEscan).
The remaining binding was 87% (CAMKK1 (Homo sapiens, UniProt Q8N5S9); binding, competition with immobilised ligand).
It gave 78% for remaining binding (CAMK2D (Homo sapiens, UniProt Q13557); binding, competition with immobilised ligand).
The remaining binding was 24% (PIK3CA (Homo sapiens, UniProt P42336, I800L); binding, competition with immobilised ligand).
The remaining binding was 100% (PLK4 (Homo sapiens, UniProt O00444); binding, competition with immobilised ligand).
PIK3CA (Homo sapiens, UniProt P42336, Q546K); kinase binding, KINOMEscan; reference: DMSO control — remaining binding: 59%.
